Published values of several laboratories.
Lines come from different studies, so protocols differ. pIC50: −log10 of the molar value.
CHEK1: Serine/threonine-protein kinase Chk1 (CHEK1, Homo sapiens, UniProt O14757)
Chain of UniProt O14757 (whole entry, looked up): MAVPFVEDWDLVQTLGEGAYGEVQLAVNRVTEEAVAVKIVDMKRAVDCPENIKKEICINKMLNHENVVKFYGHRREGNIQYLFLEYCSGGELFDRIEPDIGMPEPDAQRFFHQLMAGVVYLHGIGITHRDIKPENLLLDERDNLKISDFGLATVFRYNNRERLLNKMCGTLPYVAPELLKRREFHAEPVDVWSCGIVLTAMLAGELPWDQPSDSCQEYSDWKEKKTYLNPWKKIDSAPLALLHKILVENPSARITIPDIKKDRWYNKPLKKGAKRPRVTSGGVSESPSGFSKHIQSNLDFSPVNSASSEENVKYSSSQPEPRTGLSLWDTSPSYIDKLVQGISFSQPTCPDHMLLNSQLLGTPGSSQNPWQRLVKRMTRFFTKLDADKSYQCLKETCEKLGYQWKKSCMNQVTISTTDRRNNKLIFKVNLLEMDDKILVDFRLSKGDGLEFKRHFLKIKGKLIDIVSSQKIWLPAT
TGFBR2: TGF-beta receptor type-2 (TGFBR2, Homo sapiens, UniProt P37173)
Chain of UniProt P37173 (whole entry, looked up): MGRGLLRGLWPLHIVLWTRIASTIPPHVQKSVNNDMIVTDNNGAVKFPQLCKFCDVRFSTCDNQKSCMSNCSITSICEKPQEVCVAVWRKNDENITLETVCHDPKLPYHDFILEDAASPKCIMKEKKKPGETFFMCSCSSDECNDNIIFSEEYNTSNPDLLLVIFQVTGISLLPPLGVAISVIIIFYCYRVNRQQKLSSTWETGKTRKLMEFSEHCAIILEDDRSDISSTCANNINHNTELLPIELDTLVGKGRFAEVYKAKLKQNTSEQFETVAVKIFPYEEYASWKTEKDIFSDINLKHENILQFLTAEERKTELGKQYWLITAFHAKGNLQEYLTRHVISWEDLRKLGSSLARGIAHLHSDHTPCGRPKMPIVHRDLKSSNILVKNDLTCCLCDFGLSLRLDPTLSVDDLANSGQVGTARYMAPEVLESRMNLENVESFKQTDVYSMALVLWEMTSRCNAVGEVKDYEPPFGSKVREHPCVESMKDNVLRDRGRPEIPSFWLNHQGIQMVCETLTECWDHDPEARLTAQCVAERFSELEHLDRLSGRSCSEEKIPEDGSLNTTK
CA9: Carbonic anhydrase 9 (CA9, Homo sapiens, UniProt Q16790)
Chain of UniProt P78362 (whole entry, looked up): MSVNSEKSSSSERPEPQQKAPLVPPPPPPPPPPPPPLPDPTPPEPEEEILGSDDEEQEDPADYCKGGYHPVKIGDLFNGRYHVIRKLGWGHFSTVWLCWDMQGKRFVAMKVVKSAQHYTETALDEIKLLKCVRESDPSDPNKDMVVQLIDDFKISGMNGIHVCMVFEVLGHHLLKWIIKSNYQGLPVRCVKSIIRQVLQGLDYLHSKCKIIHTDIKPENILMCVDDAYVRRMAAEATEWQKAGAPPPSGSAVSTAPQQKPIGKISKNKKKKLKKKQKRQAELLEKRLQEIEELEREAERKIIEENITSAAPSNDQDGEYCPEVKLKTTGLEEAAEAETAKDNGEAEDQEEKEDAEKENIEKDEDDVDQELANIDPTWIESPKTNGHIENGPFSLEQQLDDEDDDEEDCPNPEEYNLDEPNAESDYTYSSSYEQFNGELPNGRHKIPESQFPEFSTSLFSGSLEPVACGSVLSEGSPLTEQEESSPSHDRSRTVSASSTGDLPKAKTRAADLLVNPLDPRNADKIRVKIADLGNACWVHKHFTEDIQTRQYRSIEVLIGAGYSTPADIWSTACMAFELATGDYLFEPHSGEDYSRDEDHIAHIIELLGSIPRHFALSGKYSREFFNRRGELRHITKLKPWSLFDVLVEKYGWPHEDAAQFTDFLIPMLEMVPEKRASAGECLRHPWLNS

Cc1cc([C@@H](C)Nc2ccccc2C(=O)O)c2nc(N3CCC(F)(F)CC3)c(C#N)c(=O)n2c1
remaining binding (CHEK1; binding, competition with immobilised ligand; 10 µM): 97%

CNc1ncc2c(/C=C/C(=O)N3CCC(OC)CC3)nn(Cc3cccc(C(F)(F)F)c3)c2n1
remaining activity (CHEK1; enzyme activity, inhibitor, radiometric; 1 µM): 91%

CCCCC(=O)Nc1ccc(-c2ccc3ncn(CCC)c(=O)c3c2)cn1
remaining binding (TGFBR2; binding, competition with immobilised ligand; 0.5 µM): 100%

CC(=O)Nc1ccc(NC(=O)Nc2nc(CC(=O)Nc3ccc(S(N)(=O)=O)cc3)cs2)cc1
pIC50 (CA9; enzyme activity, inhibitor): 7.52

COc1cc(-c2cncc3c2CN(C)Cc2cc(N4CCNCC4)ccc2-3)cc(OC)c1OC
remaining activity (CHEK1; enzyme activity, inhibitor; 1 µM): 100%

NS(=O)(=O)c1ccc(Cl)c(C(=O)N2CCN(C(=O)c3cccc(Cl)c3)CC2)c1
pIC50 (CA9; enzyme activity, inhibitor): 6.44

[2H]c1c([2H])c([C@]2([2H])CCCN2C(=O)C(C)(C)Oc2ccc3cn[nH]c3c2)c([2H])c([2H])c1C([2H])([2H])[2H]
remaining binding (TGFBR2; binding, competition with immobilised ligand; 1 µM): 84%

C=CC(=O)N1CCC(COCC(=O)N2CCN(c3nc(-c4cnc(N)nc4C(F)F)nc(N4CCOC[C@@H]4C)n3)CC2)CC1
remaining binding (SRPK2 (Homo sapiens, UniProt P78362); binding, competition with immobilised ligand; 1 µM): 88%

For quick reference, copied from above:
NS(=O)(=O)c1ccc(Cl)c(C(=O)N2CCN(C(=O)c3cccc(Cl)c3)CC2)c1
pIC50 (CA9; enzyme activity, inhibitor): 6.44
